Results collected from several papers.
Numbered parts are unrelated; each lists some results of a single study. Values joined by “and” are separate records of one study, mostly repeats; a detail may differ.

Series 1
Target: Histone acetyltransferase KAT6A, winged helix 2, GST fusion (KAT6A, Homo sapiens, UniProt Q92794, residues 85-181)
Method: protein binding microarray
Molecule type: double-stranded DNA, one strand shown
Sample: in vitro
Tested at: not given
Setting: 8-mer, flanks averaged, mean of 2 arrays, mostly near background
Relative to: not given
Direction: higher = stronger binding
Measurement: E-score
Residues (chain): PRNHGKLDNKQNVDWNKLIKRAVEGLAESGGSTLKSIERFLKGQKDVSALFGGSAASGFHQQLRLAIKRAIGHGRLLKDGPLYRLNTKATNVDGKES
AACTGTCC: 0.0156
CACTCCTA: -0.0537
ACGCAGCC: 0.142
ACCTCATC: 0.0104
CAGTGGCA: 0.0372
CCGGGCGA: 0.00436
AGGAGTTC: -0.134
ATTGTTTG: -0.0247

Series 2
Target: Max dimerization protein 1, bHLH-zipper, MAX partner unstated (MXD1, Homo sapiens, UniProt Q05195, residues 56-136)
Method: protein-binding microarray
Molecule type: double-stranded DNA, one strand shown
Sample: in vitro
Tested at: not given
Setting: k-mer, scored over probes, only values ≥0.25
Direction: higher = stronger binding
Measurement: E-score
Residues (chain): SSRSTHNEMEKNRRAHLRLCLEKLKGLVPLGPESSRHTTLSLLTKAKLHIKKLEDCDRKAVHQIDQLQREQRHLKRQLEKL
ACGTGTGA: 0.392
CGCACCCC: 0.283
ATGTGCAC: 0.312
CGTGACTA: 0.289
AGCATGAT: 0.261

Series 3
Target: Replicase polyprotein 1ab, main protease (rep, Severe acute respiratory syndrome coronavirus 2, UniProt P0DTD1)
Effect on: enzyme activity
Mode: inhibitor
Tested at: 20 µM
Setting: primary screen
Measurement: inhibition
Cc1ccc(-n2sc3ccccc3c2=O)cc1: 101%
O=C(O[C@@H]1Cc2c(O)cc(O)cc2O[C@@H]1c1ccc(O)c(O)c1)c1cc(O)c(O)c(O)c1: 58.2%
Cc1ccc(S(=O)(=O)/C=C/C#N)cc1: 95.7%
COc1cc2c(cc1OC(C)C)[C@H](c1ccc(Cl)cc1)N(c1ccc(N(C)C[C@H]3CC[C@H](N4CCN(C)C(=O)C4)CC3)cc1)C(=O)C2: 26.2%
CC(C)C[C@@H](C=O)NC(=O)[C@H](CC(C)C)NC(=O)[C@H](CC(C)C)NC(=O)OCc1ccccc1: 68.5% and 91.7%

Series 4
Target: Replicase polyprotein 1ab, polymerase (rep, Severe acute respiratory syndrome coronavirus 2, UniProt P0DTD1)
Effect on: enzyme activity
Mode: inhibitor
Tested at: 20 µM
Measurement: inhibition
O=C(Nc1cc(C(F)(F)F)cc(C(F)(F)F)c1)c1cc(Cl)ccc1O: -5.33%
CNCCCOc1cc(F)c(-c2c(Cl)nc3ncnn3c2N[C@@H](C)C(F)(F)F)c(F)c1: -5.02%
CCS(=O)(=O)N1CCN(c2ccc(Nc3ncc(C(N)=O)c(NC4CC4)n3)cc2)CC1: 3.51%
c1ccc2c(c1)Nc1ccccc1S2: -5.42%
NNC(=O)CSc1nc2scc(-c3ccccc3)c2c(=O)n1-c1ccccc1: -2.27%
FC(F)(F)Oc1ccc2nc(-c3ccc(OCCOCCOc4ccc(-c5nc6ccc(OC(F)(F)F)cc6[nH]5)nc4)cn3)[nH]c2c1: 7.6%
COC(=O)c1cc(OC)c2c(c1-c1c(CO)cc(OC)c3c1OCO3)OCO2: -0.46%
O=S1(=O)OC(c2ccc(O)cc2)(c2ccc(O)cc2)c2ccccc21: 15.6%
CO[C@@H]1[C@H](N(C)C(=O)c2ccccc2)C[C@H]2O[C@]1(C)n1c3ccccc3c3c4c(c5c6ccccc6n2c5c31)C(=O)NC4: 4.32%
NC(=O)N1CCC(CC(=O)N2CCC([C@H]3c4ncc(Br)cc4CCc4cc(Cl)cc(Br)c43)CC2)CC1: 1.18%
C[C@]12Cc3c[nH]nc3C[C@@H]1CC[C@@H]1[C@@H]2CC[C@@]2(C)[C@H]1CC[C@]2(C)O: 3.01%
CC[C@H](CO)Nc1nc(Nc2cccc(-c3ccccn3)c2)c2ncn(C(C)C)c2n1: 4.85%
COc1cc(C[C@@H]2NCCc3cc(O)c(O)cc32)cc(OC)c1OC: 2.53%
Nc1nccc2c1ncn2[C@@H]1C=C(CO)[C@@H](O)[C@H]1O: -1.7%
Cn1c(=O)c(F)c(Nc2ccc(I)cc2F)c2c(=O)n(C[C@@H](O)CO)cnc21: -3.22%
COc1cc(-c2ccc(=O)[nH]n2)ccc1OC(F)F: -0.18%
CC[N+](CC)(CC)CC(=O)Nc1c(C)cccc1C: 6.26%
CC(Cc1cccc(C(F)(F)F)c1)NCCOC(=O)c1ccccc1 (stereo not shown): 1.59%
C[C@H](N[C@@H](CCc1ccccc1)C(=O)O)C(=O)N1Cc2ccccc2C[C@H]1C(=O)O: -6.32%
Nc1nonc1C(=Nc1ccc(F)c(Cl)c1)NO: 0.22%
C[C@@H](N[C@H]1CCCC[C@@H]1NC(=O)c1ccc(Cl)cc1)c1cccc2ccccc12: -1.07%
CN1CCN(C2=Cc3ccccc3Oc3ccc(Cl)cc32)CC1: -5.65%
O=c1c2ccccc2nc2n1CCc1c-2[nH]c2ccccc12: -2.36%
COc1ccc2c(c1)c(CC(=O)OCC(C(=O)O)c1ccccc1)c(C)n2C(=O)c1ccc(Cl)cc1 (stereo not shown): -3.4%
O=C1c2ccccc2C(Cc2ccnc(F)c2)(Cc2ccnc(F)c2)c2ccccc21: -4.21%

Series 5
Target: Interferon regulatory factor 5, full length, phosphomimetic (IRF5, Homo sapiens, UniProt Q13568-2, residues 1-514, K96S/S451D/S453D/S456D/S462D)
Method: protein-binding microarray
Molecule type: double-stranded DNA, one strand shown
Sample: in vitro
Tested at: 250 nM
Setting: 60-bp whole probe
Together with: salmon DNA 0.4 mg/ml
Relative to: random background probes
Direction: higher = stronger binding
Measurement: log fluorescence
Constant ends, left off below: GCCTAGCAC … GTCTTGATTCGCTTGACGCTGCTG
GACGATAACGGGACTGGAGACGTGCTA: 0.217 z-score
CCCCTACTGTATTTGGCCAGGTGCTAG: -0.279 z-score
GGGTCTCTTGTTCTCTCTGGGTGCTAG: 0.171 z-score
TTCACTTTAAATTAGACTTAGTGCTAG: 0.919 z-score
TTAGGGATCCTTATCCTTTAGTGCTAG: -0.466 z-score
TCAGTGATAGCTCTGGTACTGTGCTAG: -0.202 z-score
TCATCTCTCCCATTCTGACTGTGCTAG: 0.417 z-score
TTAGATTTCGGGTATCGATTGGTGCTA: 7.21 z-score

Series 6
Cell line: HEK-293T/ACE2
Tested at: concentration not given
Time: 16 (unit not given)
Relative to: vehicle
Measurement: viability
CNNCc1ccc(C(=O)NC(C)C)cc1: 105%
C[C@]12CC[C@H](O)CC1=CC[C@@H]1[C@@H]2CC[C@]2(C)C(c3cccnc3)=CC[C@@H]12: 99.3%
CC(=O)O[C@]1(C(C)=O)CC[C@H]2[C@@H]3CCC4=CC(=O)CCC4=C3[C@@H](c3ccc(N(C)C)cc3)C[C@@]21C: 99.4%
Nc1nc(NC2CC2)c2ncn([C@H]3C=C[C@@H](CO)C3)c2n1: 100%

Excerpt of the above (series 4):
COc1cc(C[C@@H]2NCCc3cc(O)c(O)cc32)cc(OC)c1OC: 2.53%
Nc1nccc2c1ncn2[C@@H]1C=C(CO)[C@@H](O)[C@H]1O: -1.7%
Cn1c(=O)c(F)c(Nc2ccc(I)cc2F)c2c(=O)n(C[C@@H](O)CO)cnc21: -3.22%
COc1cc(-c2ccc(=O)[nH]n2)ccc1OC(F)F: -0.18%
CC[N+](CC)(CC)CC(=O)Nc1c(C)cccc1C: 6.26%
CC(Cc1cccc(C(F)(F)F)c1)NCCOC(=O)c1ccccc1 (stereo not shown): 1.59%
C[C@H](N[C@@H](CCc1ccccc1)C(=O)O)C(=O)N1Cc2ccccc2C[C@H]1C(=O)O: -6.32%
Nc1nonc1C(=Nc1ccc(F)c(Cl)c1)NO: 0.22%
